Experimental data of several laboratories.
± marks the error that the study gave.

SMILES	cell line	read-out	technique	time	notes	CC50 [µM]
OC1(C#Cc2c(-c3ccsc3)oc3ccc(N4CCOCC4)cc23)CCCCC1	Huh-7.5.1	–	–	–	–	43.6
O=[N+]([O-])c1ccc(/C=N/N=C/c2ccc(O)cc2)o1	MDBK	–	CCK-8	72 h	–	18.4 ± 2.51
O=C(Nc1cc(F)c(F)c(F)c1)c1ccc(F)c(S(=O)(=O)N2CCC(NC(=O)C3CCN(C(=O)CC45CC6CC(CC(C6)C4)C5)CC3)CC2)c1	HePAD38	cell growth or viability	–	–	–	> 60
O=[N+]([O-])c1ccc(/C=N/N=C/c2ccc(F)cc2)s1	MDBK	–	CCK-8	72 h	–	88 ± 66.8
C#CCN1CCc2c3n(c4ccccc24)C(=O)C(C)(C)C3(C(=O)OC)C1 (centres unmarked)	HePAD38	cell growth or viability	MTS	14 days	–	> 100
Nc1ncnc2c1ncn2[C@@H]1O[C@H](CO)[C@@H](O)[C@H]1F	CAKI-1	cell growth or viability	SRB	11 days	–	69
CCOC(=O)CNC(=O)CN1C(=O)S/C(=C\c2ccc(OC)c(O)c2)C1=O	MDBK	cell growth or viability	CCK-8	72 h	–	> 256
O=[N+]([O-])c1ccc(/C=N/N=C/c2ccc(F)cc2)o1	MDBK	–	CCK-8	72 h	–	33.9 ± 22.2
CCOC(=O)C(NC(=O)CN1C(=O)N/C(=C\c2ccc3c(c2)OCO3)C1=O)C(C)C (centres unmarked)	MDBK	cell growth or viability	CCK-8	72 h	–	> 266
O=C(CC12CC3CC(CC(C3)C1)C2)NCCOCC(=O)NC1CCN(S(=O)(=O)c2cc(C(=O)Nc3cc(F)c(F)c(F)c3)ccc2F)CC1	HePAD38	cell growth or viability	–	–	–	28.8
CCOC(=O)CNC(=O)CN1C(=O)S/C(=C\c2ccc(C)cc2)C1=O	MDBK	cell growth or viability	CCK-8	72 h	–	112
COc1cc(O)c2c(O)c(C(C)=O)c(C)cc2c1	CHO-K1	cell growth or viability	MTT	72 h	–	> 100
O=c1ccn([C@@H]2O[C@H](CO)[C@@H](O)[C@H]2F)c(=O)[nH]1	CAKI-1	–	sulforhodamine B	11 days	galactose medium	> 250
C#CCN1CCc2c3n(c4ccccc24)C(=O)C(=C)CC3(C(=O)OC)C1 (centres unmarked)	HePAD38	cell growth or viability	MTS	14 days	–	13.3
O=[N+]([O-])c1ccc(/C=N/N=C/c2ccc(Br)cc2)s1	MDBK	–	CCK-8	72 h	–	> 296
C[C@H]1[C@H](C)CC[C@]2(CO)CC[C@]3(C)C(=CC[C@@H]4[C@@]5(C)CCCNC(C)(C)[C@@H]5CC[C@]43C)[C@H]12	HFF primary foreskin fibroblasts	cell viability	CellTiter-Glo	–	–	16.1
O=C(Nc1cc(F)c(F)c(F)c1)c1ccc(F)c(S(=O)(=O)N2CCC(NC(=O)c3ccc(C4CCN(C(=O)CC56CC7CC(CC(C7)C5)C6)CC4)cc3)CC2)c1	HePAD38	cell growth or viability	–	–	–	> 60
Cc1ccc(/C=N/N=C/c2ccc([N+](=O)[O-])o2)cc1	MDBK	–	CCK-8	72 h	–	> 389

SMILES	cell line	read-out	technique	time	notes	CC50 [µM]
CC1CCC2(C(=O)OCc3ccccc3)CCC3(C)C(=CCC4C5(C)CCC(OC6OC(CO)C(OC7OC(C)C(O)C(O)C7O)C(O)C6OC6OC(C)C(O)C(O)C6O)C(C)(C)C5CCC43C)C2C1C (centres unmarked)	MARC145	cell growth or viability	MTT	48 h	–	81.4
O=[N+]([O-])c1ccc(/C=N/N=C/c2ccc(OCc3ccccc3)cc2)s1	MDBK	–	CCK-8	72 h	–	> 274
O=C(Nc1cc(F)c(F)c(F)c1)c1ccc(F)c(S(=O)(=O)N2CCC(NC(=O)c3ccc(N4CCN(C(=O)CC56CC7CC(CC(C7)C5)C6)CC4)cc3)CC2)c1	HePAD38	cell growth or viability	–	–	–	> 60
Nc1ccn([C@@H]2O[C@H](CO)[C@@H](O)[C@H]2F)c(=O)n1	CAKI-1	–	sulforhodamine B	11 days	galactose medium	> 250
CCOC(=O)C(C)NC(=O)CN1C(=O)N/C(=C\c2ccc(C)cc2)C1=O (centres unmarked)	MDBK	cell growth or viability	CCK-8	72 h	–	145
O=C(CN1CCN(C(=O)CC23CC4CC(CC(C4)C2)C3)CC1)NC1CCN(S(=O)(=O)c2cc(C(=O)Nc3cc(F)c(F)c(F)c3)ccc2F)CC1	HePAD38	cell growth or viability	–	–	–	60
O=[N+]([O-])c1ccc(/C=N/N=C/c2ccc([N+](=O)[O-])s2)cc1	MDBK	–	CCK-8	72 h	–	> 329
Cc1[nH]c2ccccc2c1CC(=O)N[C@@H](Cc1ccccc1)C(=O)N(C)c1ccccc1	TZM-GFP	–	XTT	72 h	–	76 ± 9
COc1ccc(-c2oc3ccc(-c4cc(OC)c(OC)c(OC)c4)cc3c2C#CC(C)(C)O)cc1	Huh-7.5.1	–	–	–	–	86.1
C=Cc1cn([C@@H]2O[C@H](CO)C[C@H]2O)c2ncnc(N)c12	MRC-5 SV2 fibroblasts	–	resazurin	72 h	5% fetal bovine serum	25.6
O=[N+]([O-])c1ccc(/C=N/N=C/c2ccccc2)s1	MDBK	–	CCK-8	72 h	–	10.4 ± 1.97
COC(=O)C1NC(c2ccc[n+](C)c2)C23c4c5c6c7c8c9c(c%10c%11c2c2c4c4c%12c5c5c6c6c8c8c%13c9c9c%10c%10c%11c%11c2c2c4c4c%12c%12c5c5c6c8c6c8c%13c9c9c%10c%10c%11c2c2c4c4c%12c5c6c5c8c9c%10c2c45)C713 (centres unmarked)	DG-75	cell growth or viability	–	24 h	–	18.8
OC[C@H]1O[C@@H](n2cnc3c(O)ncnc32)[C@H](F)[C@@H]1O	CAKI-1	–	sulforhodamine B	11 days	galactose medium	29
C#CCN1CCc2c3n(c4ccccc24)C(=O)C(=C)C3(C(=O)OC)C1 (centres unmarked)	HePAD38	cell growth or viability	MTS	14 days	–	13.7
CCCC[n+]1cccc(C2NC(C(=O)OCC)C34c5c6c7c8c9c%10c(c%11c%12c3c3c5c5c%13c6c6c7c7c9c9c%14c%10c%10c%11c%11c%12c%12c3c3c5c5c%13c%13c6c6c7c9c7c9c%14c%10c%10c%11c%11c%12c3c3c5c5c%13c6c7c6c9c%10c%11c3c56)C824)c1 (centres unmarked)	DG-75	cell growth or viability	–	24 h	–	> 25
C#CCN1CCc2c([nH]c3ccccc23)C(=C)C1=O	HePAD38	cell growth or viability	MTS	14 days	–	43.8
COc1ccc(-c2ccc3oc(-c4ccc(OC)cc4)c(C#CC4(O)CCCCC4)c3c2)cc1	Huh-7.5.1	–	–	–	–	> 100

Some of these lines once more:
SMILES	cell line	read-out	technique	time	notes	CC50 [µM]
CCOC(=O)CNC(=O)CN1C(=O)S/C(=C\c2ccc(OC)c(O)c2)C1=O	MDBK	cell growth or viability	CCK-8	72 h	–	> 256
O=[N+]([O-])c1ccc(/C=N/N=C/c2ccc(F)cc2)o1	MDBK	–	CCK-8	72 h	–	33.9 ± 22.2
CCOC(=O)C(NC(=O)CN1C(=O)N/C(=C\c2ccc3c(c2)OCO3)C1=O)C(C)C (centres unmarked)	MDBK	cell growth or viability	CCK-8	72 h	–	> 266
